Experimental data from different studies.
± gives the spread as reported. Converted amounts (≈) assume the structure as drawn.

SMILES	target or system	test	test system	conditions	scale	measurement	result
COC(=O)C1=CO[C@@H](O)[C@@H]2C(Cn3cc(-c4ccc(F)cc4)nn3)=CC[C@H]12	SK-N-SH	neuroprotection, MTT	–	0.15 µM, 24 h, with: 250 µM H2O2	–	viability	52.6 ± 1.6%
CC[C@H](C)[C@H](NC(=O)[C@H](Cc1ccccc1)NC(=O)[C@H](CCC(=O)O)NC(=O)[C@H](CCCCNC(=O)COCC(=O)NCCCOCCOCCOCCCNC(=O)CNC(=O)[C@@H]1CCCN1C(=O)CNC(=O)[C@@H]1CCCN1C(=O)CNC(=O)[C@@H]1CCCN1C(=O)[C@H](CCCCNC(=O)CN(CCN(CCN(CC(=O)O)CC(=O)O)CC(=O)O)CC(=O)O)NC(=O)COCC(=O)NCCCOCCOCCOCCCNC(=O)COCC(=O)NCCOc1ccc(Cl)cc1C(=O)NCCc1ccc(S(=O)(=O)NC(=O)NC2CCCCC2)cc1)NC(=O)[C@H](C)NC(=O)[C@H](C)NC(=O)[C@H](CCC(N)=O)NC(=O)CNC(=O)[C@H](CCC(=O)O)NC(=O)[C@H](CC(C)C)NC(=O)[C@H](Cc1ccc(O)cc1)NC(=O)[C@H](CO)NC(=O)[C@H](CO)NC(=O)[C@@H](NC(=O)[C@H](CC(=O)O)NC(=O)[C@H](CO)NC(=O)[C@@H](NC(=O)[C@H](Cc1ccccc1)NC(=O)[C@@H](NC(=O)CNC(=O)[C@H](CCC(=O)O)NC(=O)[C@H](C)NC(=O)[C@@H](N)Cc1c[nH]cn1)[C@@H](C)O)[C@@H](C)O)C(C)C)C(=O)N[C@@H](C)C(=O)N[C@@H](Cc1c[nH]c2ccccc12)C(=O)N[C@@H](CC(C)C)C(=O)N[C@H](C(=O)N[C@@H](CCCNC(=N)N)C(=O)NCC(=O)N[C@@H](CCCNC(=N)N)C(=O)NCC(N)=O)C(C)C	GLP-1R and SUR1	saturation binding, time-resolved fluorescence	βTC3	with: Eu-labelled ligand	baseline: monomeric Eu-labelled GLP-1	affinity gain	~3 fold
CC[C@@H]1CN2CCc3c([nH]c4cccc(OC)c34)[C@H]2C[C@@H]1/C(=C\OC)C(=O)OC	rabbit anti-mitragynine polyclonal IgG	competitive indirect ELISA	–	concentration not given	baseline: mitragynine	cross-reactivity	8.18%
COCOC[C@H]1O[C@H](O[C@H]2[C@H](O[C@@H]3O[C@H](CO)[C@@H](O[C@H]4O[C@@H](CN)[C@@H](O)[C@H](O)[C@H]4N)[C@H]3O)[C@@H](O)[C@H](N)C[C@@H]2N)[C@H](N)[C@@H](O)[C@@H]1OCOC	ribosome with mitochondrial A site	luciferase translation, cell-free translation	–	–	–	IC50	> 700 µg/mL
CC[C@H](C)[C@@H]1NC(=O)[C@H](Cc2ccc(O)cc2)NC(=O)[C@@H](N)CSSC[C@@H](C(=O)N2CCC[C@H]2C(=O)N2CCC[C@H]2C(=O)NCC(N)=O)NC(=O)[C@H](CC(N)=O)NC(=O)[C@H](CCC(N)=O)NC1=O	oxytocin receptor (Callithrix jacchus)	Ca2+ mobilisation, agonist	CHO cells	–	–	Emax	1740 RFU
O=C1c2cc(F)ccc2NC12CCCC2	acetylcholinesterase	–	–	10 µM	–	remaining activity	80.2 ± 1.17%
Br.Br.O=c1c(O)cccn1CCN1CCN(CCn2cccc(O)c2=O)CC1	Fe(III)	complex formation	–	–	–	log K110	7.5
Cc1c(-c2cccc(C3=NCCN3)c2)oc(-c2cccc(C3=NCCN3)c2)c1C	F21T G-quadruplex DNA	FRET melting competition	–	1 µM, with: calf thymus DNA, G4:CT 1:10	baseline: without competitor	remaining ΔTm	100%
CCCCCCCCC(=O)NCc1ccc(O)c(OC)c1	mAb 6-AT6	antibody binding, indirect competitive ELISA	–	with: coating antigen 5-OVA	–	IC50	0.637 µg/mL (≈ 2.17 µM)
COc1ccc(F)cc1S(=O)(=O)Nc1cnc2c(c1)C(=O)NCCO2	alkaline phosphatase	inhibitor	cynomolgus monkey	oral, 0.03 to 1.0 mg/kg, up to 4 h	baseline: vehicle	plasma ALP activity	decreased
O=C1c2cc(Cl)ccc2N(Cc2ccccc2)C12CCCC2	acetylcholinesterase	–	–	10 µM	–	remaining activity	92.8 ± 8.99%
C=CCO[C@H]1[C@H](O)[C@@H](N)[C@@H](O[C@H]2[C@H](O[C@@H]3O[C@H](CO)[C@@H](O[C@H]4O[C@@H](CN)[C@@H](O)[C@H](O)[C@H]4N)[C@H]3O)[C@@H](O)[C@H](N)C[C@@H]2N)O[C@@H]1CO	ribosome with mitochondrial A site	luciferase translation, cell-free translation	–	–	–	IC50	102 ± 9.99 µg/mL (≈ 156 µM)
C=C(NC(=O)C(=C)NC(=O)c1csc(C2=NC3c4csc(n4)C4NC(=O)c5csc(n5)C(C(C)(O)C(C)O)NC(=O)C5CSC(=N5)C(=CC)NC(=O)C(C(C)O)NC(=O)c5csc(n5)C3(CC2)NC(=O)C(=C)NC(=O)C(=C)NC(=O)C(C)NC(=O)C(C(C)CC)NC2C=Cc3c(C(C)O)cc(nc3C2O)C(=O)OC4C)n1)C(N)=O (stereo not drawn)	20S proteasome	–	–	three proteolytic activities	baseline: compound over thiostrepton A	IC50 ratio range	≤ 5 fold
O=C1c2cc(F)ccc2N(Cc2ccccc2)C12CCCC2	acetylcholinesterase	–	–	10 µM	–	remaining activity	99.1 ± 14.2%
CCCCO[C@H]1[C@H](O)[C@@H](N)[C@@H](O[C@H]2[C@H](O[C@@H]3O[C@H](CO)[C@@H](O[C@H]4O[C@@H](CN)[C@@H](O)[C@H](O)[C@H]4N)[C@H]3O)[C@@H](O)[C@H](N)C[C@@H]2N)O[C@@H]1CO	ribosome with mitochondrial A site	luciferase translation, cell-free translation	–	–	–	IC50	150 ± 38.6 µg/mL (≈ 223 µM)
O=C1c2ccccc2N(Cc2ccccc2)C12CCCC2	acetylcholinesterase	–	–	10 µM	–	remaining activity	68.31 ± 0.51%
CCCCCCCC/C=C\CCCCCCCC(=O)Oc1cccc(SSC[C@H](N)C(=O)N[C@@H](Cc2ccc(O)cc2)C(=O)NCC(=O)N[C@@H](C)C(=O)N[C@@H](CCCCN)C(N)=O)c1	calpain, rabbit	enzyme activity	rabbit renal proximal tubule cells	100 µM, 24 h	–	inhibition	~40%
NC[C@@H]1O[C@H](O[C@H]2[C@@H](O)[C@H](O[C@@H]3[C@@H](O)[C@H](N)C[C@H](N)[C@H]3O[C@H]3O[C@@H]4COCO[C@H]4[C@H](O)[C@H]3N)O[C@@H]2CO)[C@H](N)[C@@H](O)[C@@H]1O	ribosome with mitochondrial A1555G A site	luciferase translation, cell-free translation	–	–	–	IC50	253 ± 37.6 µg/mL (≈ 403 µM)
CC(C)C[C@H](NC(=O)[C@H](Cc1ccccc1)NC(=O)CNC(=O)CNC(=O)[C@@H](N)Cc1ccc(O)cc1)C(=O)O	delta opioid receptor (Rana pipiens)	–	–	–	–	EC50	1800 nM
CCO[C@H]1[C@H](O)[C@@H](N)[C@@H](O[C@H]2[C@H](O[C@@H]3O[C@H](CO)[C@@H](O[C@H]4O[C@@H](CN)[C@@H](O)[C@H](O)[C@H]4N)[C@H]3O)[C@@H](O)[C@H](N)C[C@@H]2N)O[C@@H]1CO	ribosome with mitochondrial A site	luciferase translation, cell-free translation	–	–	–	IC50	96.8 ± 4.22 µg/mL (≈ 150 µM)
CN1C(=O)C2(Cc3ccc(CC45SSC(CO)(C(=O)N4C)N(C)C5=O)cc3)SSC1(CO)C(=O)N2C (racemic)	HIF-1α	reporter gene, HRE luciferase reporter	MDA-MB-231-HRE-Luc	600 nM, with: deferoxamine 300 µM, hypoxia	–	inhibition	94%
NC[C@@H]1O[C@H](O[C@H]2[C@@H](O)[C@H](O[C@@H]3[C@@H](O)[C@H](N)C[C@H](N)[C@H]3O[C@H]3O[C@H](CO)[C@@H](OCC(O)CO)[C@H](O)[C@H]3N)O[C@@H]2CO)[C@H](N)[C@@H](O)[C@@H]1O (stereo partly drawn)	Mycobacterium smegmatis ribosome A1408G	translation, cell-free luciferase synthesis	–	–	–	IC50	0.87 ± 0.07 µg/mL (≈ 1.26 µM)
Cc1cc2c(cc1Cl)Cc1c(C(=O)NC3C4(C)CCC(C4)C3(C)C)nn(-c3ccc(Cl)cc3Cl)c1-2 (stereo not drawn)	cannabinoid receptor CB2 (human)	agonist, western blot	HL-60	0.05 µM, 15 min	baseline: vehicle	ERK1/2 phosphorylation	46.4 ± 15.6%
COCOC[C@H]1O[C@H](O[C@H]2[C@H](O[C@@H]3O[C@H](CO)[C@@H](O[C@H]4O[C@@H](CN)[C@@H](O)[C@H](O)[C@H]4N)[C@H]3O)[C@@H](O)[C@H](N)C[C@@H]2N)[C@H](N)[C@@H](O)[C@@H]1O	ribosome with mitochondrial A1555G A site	luciferase translation, cell-free translation	–	–	–	IC50	289 ± 10.8 µg/mL (≈ 438 µM)
CCC(C(=O)OC)C1N=C(c2ccc(Cl)cc2)c2cc(OC)ccc2-n2c(C)nnc21 (stereo not drawn)	human BET bromodomains wild type	differential scanning fluorimetry	–	–	–	delta Tm	< 3 °C
CO[C@H]1[C@H](O)[C@@H](N)[C@@H](O[C@H]2[C@H](O[C@@H]3O[C@H](CO)[C@@H](O[C@H]4O[C@@H](CN)[C@@H](O)[C@H](O)[C@H]4N)[C@H]3O)[C@@H](O)[C@H](N)C[C@@H]2N)O[C@@H]1CO	ribosome with mitochondrial A1555G A site	luciferase translation, cell-free translation	–	–	–	IC50	175 ± 46.5 µg/mL (≈ 278 µM)
COC(=O)C1=CO[C@@H](OC(C)=O)[C@@H]2C(Cn3cc(CCCCN4C(=O)c5ccccc5C4=O)nn3)=CC[C@H]12	SK-N-SH	neuroprotection, MTT	–	0.15 µM, 24 h, with: 250 µM H2O2	–	viability	51.7 ± 0.7%

Repeated from above:
SMILES	target or system	test	test system	conditions	scale	measurement	result
CCC(C(=O)OC)C1N=C(c2ccc(Cl)cc2)c2cc(OC)ccc2-n2c(C)nnc21 (stereo not drawn)	human BET bromodomains wild type	differential scanning fluorimetry	–	–	–	delta Tm	< 3 °C
CO[C@H]1[C@H](O)[C@@H](N)[C@@H](O[C@H]2[C@H](O[C@@H]3O[C@H](CO)[C@@H](O[C@H]4O[C@@H](CN)[C@@H](O)[C@H](O)[C@H]4N)[C@H]3O)[C@@H](O)[C@H](N)C[C@@H]2N)O[C@@H]1CO	ribosome with mitochondrial A1555G A site	luciferase translation, cell-free translation	–	–	–	IC50	175 ± 46.5 µg/mL (≈ 278 µM)
COC(=O)C1=CO[C@@H](OC(C)=O)[C@@H]2C(Cn3cc(CCCCN4C(=O)c5ccccc5C4=O)nn3)=CC[C@H]12	SK-N-SH	neuroprotection, MTT	–	0.15 µM, 24 h, with: 250 µM H2O2	–	viability	51.7 ± 0.7%
